Measurements collected from several papers.
Parts stem from different laboratories: compare values within a part only. Changes are numbered by the printed parent chain.

Series 1
Target: CCNB2, cyclin fold, Cln2 fusion (human)
Technique: yeast growth competition, sequencing
Medium: yeast
Notes: weak parent motif
Baseline: not given
Direction: higher = stronger binding
Starting sequence: ITGB3BP docking peptide (human); MPVKRSLKLDGLL; partner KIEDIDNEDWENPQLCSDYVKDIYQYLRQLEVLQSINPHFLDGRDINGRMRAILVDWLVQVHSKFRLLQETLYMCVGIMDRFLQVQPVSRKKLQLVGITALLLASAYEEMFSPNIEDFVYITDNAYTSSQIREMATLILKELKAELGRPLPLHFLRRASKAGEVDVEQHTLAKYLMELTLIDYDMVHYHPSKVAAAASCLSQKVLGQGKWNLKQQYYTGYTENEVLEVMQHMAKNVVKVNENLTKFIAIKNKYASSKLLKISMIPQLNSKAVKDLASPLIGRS
Change | normalised enrichment score
R5K L9F | 0.206
M1A | 0.107
L12A | 0.369
K4A | 0.48
R5A | 0.0973
L7A | 0.944
V3A | 0.548
K8A | 0.539

Series 2
Target: Sal-like protein 4, full length isoform B (SALL4, Homo sapiens, UniProt Q9UJQ4-2, residues 1-616)
Technique: universal PBM
Form: double-stranded DNA, one strand shown
Medium: in vitro
Tested at: not given
Notes: 8-mer, flanks averaged, mean of replicates
Direction: higher = stronger binding
Sequence | E-score
AATCCCGG | -0.244
TTAGAAAA | 0.232
ACGGGAGA | -0.0669
ATATAGCC | 0.213
CGAAGTAG | -0.0392
AACCTTCA | 0.142
TCCCAGCA | -0.19
CAAGCCAC | -0.286
ATAGAACC | 0.0322
TCCCCTCA | -0.0778
CAATTTAC | 0.154
ACTCTCCT | 0.00266
GTTCCACA | -0.126
TGTGGCAA | 0.0987
CACAAATA | 0.318
AGGCCCGA | -0.281
ACTATAAG | 0.284
CGTCGTGC | -0.00545
AGCAGATG | -0.188
ATGTGGGG | 0.064
AAAGACTG | 0.0059
AGCCGGCG | -0.319
ACCATAGG | -0.0456

Series 3
Target: ABI1, truncated, D143A, DHFR fusion (Arabidopsis thaliana)
Technique: DHFR PCA, deep sequencing
Medium: yeast
Notes: methotrexate growth selection, single substitutions
With: (+)-ABA 0.11 µM
Baseline: wild-type fitted maximum
Direction: higher = stronger binding
Starting sequence: PYL1, truncated, DHFR fusion (Arabidopsis thaliana); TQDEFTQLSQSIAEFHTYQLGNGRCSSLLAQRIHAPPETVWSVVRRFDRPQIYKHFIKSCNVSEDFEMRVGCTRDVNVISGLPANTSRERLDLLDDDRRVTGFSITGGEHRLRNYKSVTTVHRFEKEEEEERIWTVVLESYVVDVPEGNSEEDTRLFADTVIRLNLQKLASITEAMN; partner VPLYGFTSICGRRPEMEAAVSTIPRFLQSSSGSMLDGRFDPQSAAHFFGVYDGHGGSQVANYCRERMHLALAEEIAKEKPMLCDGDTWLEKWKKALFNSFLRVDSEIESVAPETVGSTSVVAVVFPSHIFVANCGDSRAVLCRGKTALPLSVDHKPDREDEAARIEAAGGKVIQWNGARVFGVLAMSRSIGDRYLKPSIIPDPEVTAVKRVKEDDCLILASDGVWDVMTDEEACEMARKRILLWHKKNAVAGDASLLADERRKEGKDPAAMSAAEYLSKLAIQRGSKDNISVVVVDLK
Change | relative binding score
F56W | 3.68%
Q51C | 7.71%
P50I | -3.38%
I12V | 12.5%
N165V | 3.1%
E127H | 43.1%
R74L | 0.115%
N114L | -4.32%
V62A | 3.18%
E109F | 2.13%
V44E | -4.92%
N77K | 57.9%

Series 4
Target: Fragile X messenger ribonucleoprotein 1, C-terminal low-complexity region (Fmr1, Mus musculus, UniProt P35922)
Technique: RNA Bind-n-Seq
Form: RNA
Medium: in vitro
Tested at: 200 nM
Notes: whole 134-nt RNA, ends assumed
With: 150 mM LiCl
Baseline: input library
Direction: higher = stronger binding
Library: 7-deaza-guanosine replaces G
Shared flanks, not repeated: GGGAGUUCUACAGUCCGACGAUC … UGGAAUUCUCGGGUGUCAAGG
Sequence | log2 enrichment
AAGUCCUGUGCUACACAUCGUAUGUACCGAAUCGGCCCCGGGCCCCGGGGCCCCGGAAAGUAUUAUGUUACGCCGUUCGGAUCUGCACUU | -1.04
GUCCUGUGCUACACAUCGUAUGUACCGAAUCGGGGUUUUUGGGUUUUUGGGGUUUUUGGAAAGUAUUAUGUUACGCCGUUCGGAUCUGCA | -0.617
CUCAAGUCCUGUGCUACACAUCGUAUGUACCGAAUCGGGGCCGGGGCCGGCCGGAAAGUAUUAUGUUACGCCGUUCGGAUCUGCACUUCC | 0.299
GCAGGAAGUAAAAACAAAUGGAAAUGCUUCGGAUAGUGGCAGAGGUGGGGGUUGCUAAGGAAAGGGUGGGAUGGGAGUGGGUAAAGAGUU | 1.52
UUAAGUUGAAGGAGCGCUACCGCAACGUGCUGGACACCAUGUUCGAGCUGCUGCCCCGGAUGGCCAGGUACUGCCAGCCCCCACCCUGGC | 0.284
CAAGUCCUGUGCUACACAUCGUAUGUACCGAAUCGGUUUUUGGUUUUUUUGGAGGAAAGUAUUAUGUUACGCCGUUCGGAUCUGCACUUC | -0.926
UGGGAGGUGGAUUUUGUUUAUUUUUGUAGCUCAUUUCCAGGGGUGGGAAUUUUUUUUUAAUAUGUGUCAUGAAUAAAGUUGUUUUUGAAA | 0.351
CAAGUCCUGUGCUACACAUCGUAUGUACCGAAUCGGGGAAAGGAAAGGGAAAGGGGAAAGUAUUAUGUUACGCCGUUCGGAUCUGCACUU | -0.882
UCCUAGUAUUCUGGCCGUUCAGAGAUCUGCAAUCCUCAAGAAGCAGCAACAGCAGCAGCAGCAACAACAACAUCAAGCCUCAUCUAAUAG | 1.38
CCUGUGCUACACAUCGUAUGUACCGAAUCGGGGAGGGGAAAAAAAGGGGUUUUUUUGGGGAAAGUAUUAUGUUACGCCGUUCGGAUCUGC | -1.22
UGUGCUACACAUCGUAUGUACCGAAUCGGGGAAAAAAAGGGAAAAAAAGGGGAAAAAAAGGGGAAAGUAUUAUGUUACGCCGUUCGGAUC | 0.956

Series 5
Target: Hepatocyte nuclear factor 3-alpha (Foxa1, Mus musculus, UniProt P35582, residues 1-468, full length assumed)
Technique: EMSA with sequencing
Form: double-stranded DNA, one strand shown
Medium: in vitro
Tested at: 10 and 20 nM
Notes: whole designed probe, mean of two concentrations, ends assumed
Baseline: negative control set to 0
Direction: higher = stronger binding
Shared flanks, not repeated: GTGAGCGGTGCCCATTGATGGGGAAC … TTTCACTGGGATCGTGGGGAC
Target sequence (chain): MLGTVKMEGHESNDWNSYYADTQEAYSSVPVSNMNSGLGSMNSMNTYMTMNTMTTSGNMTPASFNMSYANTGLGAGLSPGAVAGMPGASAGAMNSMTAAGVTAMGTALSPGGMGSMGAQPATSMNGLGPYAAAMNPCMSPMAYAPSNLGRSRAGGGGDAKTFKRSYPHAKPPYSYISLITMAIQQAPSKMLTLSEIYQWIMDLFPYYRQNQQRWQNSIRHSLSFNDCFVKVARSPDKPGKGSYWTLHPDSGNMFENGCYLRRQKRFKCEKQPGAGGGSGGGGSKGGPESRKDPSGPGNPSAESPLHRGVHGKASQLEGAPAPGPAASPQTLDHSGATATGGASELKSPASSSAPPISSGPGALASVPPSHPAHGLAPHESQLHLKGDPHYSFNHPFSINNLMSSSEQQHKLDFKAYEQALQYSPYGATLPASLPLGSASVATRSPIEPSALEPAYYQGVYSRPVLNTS
Sequence | normalised bound fraction [ratio]
GTGATCCTCCTGTGTCAGCCTTCCAAGGTGCTGGGATTACAGGCATGCACCCCTGGCCTCTGAAGCATTCCTTGAGTCAGATATGCTTGGTGTTGTTTACTCAACCTGAGTCACCTTTTGCTTCCCTGTTCACCATTACCTACTGCCTTACCCTGAAAGGGGAGGTACTTACTATATATACTCAGATCATAAA | 0.388
TTATTGCTACAGATATTTTACAATTAGTATTTCTATGTAAGCACATAGGCTATTATCAAGGACAATTTATTTAGCACTTATTTTGAAATTATATGTAATCTTGCAAACAAATAAGAACCCAAGAGTATAAACTCTATGACAAAAGTCAGTATGCAAGCATTAAGAACTCTTTCAGAAATGTGTATTTAAAATG | 0.178
CTTCTTTCCTTCCTTCTTTCTTTCTCTTTCCTGTTTAAGTGAAGTGTGCAGAGGCAGATTGGGGTAGATGTTTACCTCTGTTGACATCAATGTGTCAACAGCTTCCCACTGCCTCACTGGGCCAGGTGGGGGCAGAAACCCAGCTCTCCAATGGGTGACATCCACACAGGAGGCAGGGGGGAAGTAACCTGTC | 0.121
AAAAATTTTAGTCTGGATTGATGTTAGGAAATACAATATCTAAGCAATTTGATGTTAAGTTCATCTTGACAGCTTTTAAGACAGAAAATATAAGATTACTTAGAAAATCAACAGAAAAAAATTGCTCTGTTTCTTATCTGACATGAGTCAAAACACGGAATTTTAAATTACATTAAGCTGTGAAATAAAACTG | 0.0362
AAAACCAAAAACCAAAGCTTATTCACTCTTAATCTAAGTAAGCAAGTTTGGATAGACCCCCACTAAGTATGAGCATAGTCTTTAATGCTACAATGTAATCTAATATACTTATGTCATATAAACTACTTTATTATTCTGGCAAGTTGGGAACCATTGATATAGGATTTGTGAGACTCAATAATAATAGACTTTT | 0.0167
ATCTTCCCCCTCTTCCTTGCCCCACCAGCTCACCTACGGGGGTTATTTGCACAAAGGAAAATAAATAAAGCCGGCATTCGTTAACGCAGTTCTGGCGCAAACTGCTGTTTGCTCTGGATCTAACATGGTCCTTTGGCGACGCCAGGCTCCGGGAGAGCAAAGCACCGTGTCAGGGCCATGATCCGGGCTCGCC | 0.387
ATTTCTGGAGAGCACAGTGTGTTTTATCTTGAAAAAAACATAGTTCATTATTTTTTCAACTCCCATTCTTGGAAGCGCTGAATCCACTGCTGTTATTTACACAAGAAATGTCAACGATTGTTTCAGGCAGTTTGGTAGGCTAGACAATGCTTCACACAGGGGGAACTGTTTGCAATTTACTTAAAGGGTCTAA | 0.45
TATCTTTCCTCTGACTGACAGCCTGAAGGATCGTCTATGTGATTTTTGTGTTGCTGAGGTGAAAACAATCTTTATTTGGATTGAATAGCAGAGTAAACAGGAATGAAAAAGAGACACAAAAGTTTACAGTACAGATGGTTTTCCAATTCTTTTACAAAAATTGTCTGTCTTATCAATTAAAGGTGCATTTACC | 0.203
